Published values gathered from unrelated publications.
A part holds a random share of what one study measured.

Sample 1
Target: Sal-like protein 4, full length isoform B (SALL4, Homo sapiens, UniProt Q9UJQ4-2, residues 1-616)
Technique: universal PBM
Form: double-stranded DNA, one strand shown
Matrix: in vitro
Tested at: not given
Notes: 8-mer, flanks averaged, mean of replicates
Reading: higher = stronger binding
Measurement: E-score
CAAGCACC: -0.208
AATACTCC: 0.0636
ATGCCTGG: -0.127
CTTCCTAC: -0.15
CAGCACCA: -0.218
CGCCTAAG: -0.227

Sample 2
Target: Histone acetyltransferase KAT6A, both winged helices, GST fusion (KAT6A, Homo sapiens, UniProt Q92794, residues 1-181)
Technique: protein binding microarray
Form: double-stranded DNA, one strand shown
Matrix: in vitro
Tested at: not given
Notes: 8-mer, flanks averaged, mean of 2 arrays, mostly near background
Relative to: not given
Reading: higher = stronger binding
Measurement: E-score
Residues (chain): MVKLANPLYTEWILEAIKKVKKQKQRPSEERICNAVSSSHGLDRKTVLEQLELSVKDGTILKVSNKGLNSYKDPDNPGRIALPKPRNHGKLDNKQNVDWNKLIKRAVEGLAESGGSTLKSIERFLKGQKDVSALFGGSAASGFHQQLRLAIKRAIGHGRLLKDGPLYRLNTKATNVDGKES
ACATGCCG: 0.294
GGACTCCC: -0.0479
ACGGGAAA: 0.254
AACGTCGG: 0.135
CTTTATAC: 0.0902

Mixed results
IRF5 S451D/S453D/S456D/S462D full length, phosphomimetic: Interferon regulatory factor 5, full length, phosphomimetic (IRF5, Homo sapiens, UniProt Q13568-2, residues 1-514, S451D/S453D/S456D/S462D)
IRF3 S386D/S396D/S398D/S402D/T404D/S405D full length, phosphomimetic: Interferon regulatory factor 3, full length, phosphomimetic (IRF3, Homo sapiens, UniProt Q14653, residues 1-427, S386D/S396D/S398D/S402D/T404D/S405D)
Chain of UniProt Q14653 (whole entry, unmodified, looked up): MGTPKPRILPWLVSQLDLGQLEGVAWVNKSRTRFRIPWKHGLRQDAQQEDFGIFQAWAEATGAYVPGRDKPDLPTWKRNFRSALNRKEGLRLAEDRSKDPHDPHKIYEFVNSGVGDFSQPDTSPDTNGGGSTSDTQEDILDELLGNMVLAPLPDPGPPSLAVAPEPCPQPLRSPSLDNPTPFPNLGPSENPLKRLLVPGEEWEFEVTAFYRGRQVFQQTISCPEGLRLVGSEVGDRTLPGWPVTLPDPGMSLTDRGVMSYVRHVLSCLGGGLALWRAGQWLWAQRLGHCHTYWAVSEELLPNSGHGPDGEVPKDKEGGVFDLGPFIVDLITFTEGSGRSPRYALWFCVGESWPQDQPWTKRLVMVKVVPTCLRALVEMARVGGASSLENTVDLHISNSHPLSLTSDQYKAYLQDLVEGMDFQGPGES
GCCTAGCACGACGATCTCAGTCTCGAAACGTGCTAGGTCTTGATTCGCTTGACGCTGCTG — fitted relative affinity (IRF5 S451D/S453D/S456D/S462D full length, phosphomimetic; protein-binding microarray; double-stranded DNA, one strand shown, in vitro; 940 nM top, 60-bp whole probe, added: salmon DNA 0.4 mg/ml; relative to: random background probes, higher = stronger binding): 1.5 z-score
PhoQ, residues 284 288 289 292 302 303 DDMDFR — fold induction (PhoP, residues 12 14 15 18 19 VHSCL (Escherichia coli, UniProt P23836); Sort-seq, item: YFP reporter; E. coli; PhoQ-PhoP variant library, added: 10 µM Mg2+; relative to: high Mg2+ state, higher = stronger signaling): 1.57
GCCTAGCACGACAGTTTCCTTTCCCTGACGTGCTAGGTCTTGATTCGCTTGACGCTGCTG — fitted relative affinity (IRF5 S451D/S453D/S456D/S462D full length, phosphomimetic; protein-binding microarray; double-stranded DNA, one strand shown, in vitro; 940 nM top, 60-bp whole probe, added: salmon DNA 0.4 mg/ml; relative to: random background probes, higher = stronger binding): 3.15 z-score
GCCTAGCACTCATTTTCCTATGTCATACTGTGCTAGGTCTTGATTCGCTTGACGCTGCTG — fitted relative affinity (IRF3 S386D/S396D/S398D/S402D/T404D/S405D full length, phosphomimetic; protein-binding microarray; double-stranded DNA, one strand shown, in vitro; 2540 nM top, 60-bp whole probe, added: salmon DNA 0.4 mg/ml; relative to: random background probes, higher = stronger binding): 3.9 z-score
GCCTAGCACTTAGATTCCAGTTACGATTAGTGCTAGGTCTTGATTCGCTTGACGCTGCTG — fitted relative affinity (IRF3 S386D/S396D/S398D/S402D/T404D/S405D full length, phosphomimetic; protein-binding microarray; double-stranded DNA, one strand shown, in vitro; 2540 nM top, 60-bp whole probe, added: salmon DNA 0.4 mg/ml; relative to: random background probes, higher = stronger binding): 2.69 z-score

Excerpt of the above (mixed results):
GCCTAGCACTCATTTTCCTATGTCATACTGTGCTAGGTCTTGATTCGCTTGACGCTGCTG — fitted relative affinity (IRF3 S386D/S396D/S398D/S402D/T404D/S405D full length, phosphomimetic; protein-binding microarray; double-stranded DNA, one strand shown, in vitro; 2540 nM top, 60-bp whole probe, added: salmon DNA 0.4 mg/ml; relative to: random background probes, higher = stronger binding): 3.9 z-score
